Measured values pooled from the literature.
Every numbered part comes from another study and shows a few of its results, in no order. “And” joins repeats or separate records; there may be more than shown.
Sequence of UniProt P41595 (whole entry, looked up): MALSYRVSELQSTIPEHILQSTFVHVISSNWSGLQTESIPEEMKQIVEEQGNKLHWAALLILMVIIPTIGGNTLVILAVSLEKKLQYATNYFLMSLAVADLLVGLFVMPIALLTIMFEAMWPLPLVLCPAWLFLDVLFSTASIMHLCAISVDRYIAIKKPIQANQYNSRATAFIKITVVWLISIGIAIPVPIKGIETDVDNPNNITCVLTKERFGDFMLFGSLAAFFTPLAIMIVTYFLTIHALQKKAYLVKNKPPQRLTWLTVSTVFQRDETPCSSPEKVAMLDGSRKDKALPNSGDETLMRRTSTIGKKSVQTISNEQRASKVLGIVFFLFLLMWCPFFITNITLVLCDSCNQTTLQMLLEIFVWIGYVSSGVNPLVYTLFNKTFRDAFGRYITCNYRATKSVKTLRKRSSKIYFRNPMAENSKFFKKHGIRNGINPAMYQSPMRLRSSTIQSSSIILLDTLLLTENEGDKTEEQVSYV
Sequence of UniProt P00519 (whole entry, unmodified, looked up): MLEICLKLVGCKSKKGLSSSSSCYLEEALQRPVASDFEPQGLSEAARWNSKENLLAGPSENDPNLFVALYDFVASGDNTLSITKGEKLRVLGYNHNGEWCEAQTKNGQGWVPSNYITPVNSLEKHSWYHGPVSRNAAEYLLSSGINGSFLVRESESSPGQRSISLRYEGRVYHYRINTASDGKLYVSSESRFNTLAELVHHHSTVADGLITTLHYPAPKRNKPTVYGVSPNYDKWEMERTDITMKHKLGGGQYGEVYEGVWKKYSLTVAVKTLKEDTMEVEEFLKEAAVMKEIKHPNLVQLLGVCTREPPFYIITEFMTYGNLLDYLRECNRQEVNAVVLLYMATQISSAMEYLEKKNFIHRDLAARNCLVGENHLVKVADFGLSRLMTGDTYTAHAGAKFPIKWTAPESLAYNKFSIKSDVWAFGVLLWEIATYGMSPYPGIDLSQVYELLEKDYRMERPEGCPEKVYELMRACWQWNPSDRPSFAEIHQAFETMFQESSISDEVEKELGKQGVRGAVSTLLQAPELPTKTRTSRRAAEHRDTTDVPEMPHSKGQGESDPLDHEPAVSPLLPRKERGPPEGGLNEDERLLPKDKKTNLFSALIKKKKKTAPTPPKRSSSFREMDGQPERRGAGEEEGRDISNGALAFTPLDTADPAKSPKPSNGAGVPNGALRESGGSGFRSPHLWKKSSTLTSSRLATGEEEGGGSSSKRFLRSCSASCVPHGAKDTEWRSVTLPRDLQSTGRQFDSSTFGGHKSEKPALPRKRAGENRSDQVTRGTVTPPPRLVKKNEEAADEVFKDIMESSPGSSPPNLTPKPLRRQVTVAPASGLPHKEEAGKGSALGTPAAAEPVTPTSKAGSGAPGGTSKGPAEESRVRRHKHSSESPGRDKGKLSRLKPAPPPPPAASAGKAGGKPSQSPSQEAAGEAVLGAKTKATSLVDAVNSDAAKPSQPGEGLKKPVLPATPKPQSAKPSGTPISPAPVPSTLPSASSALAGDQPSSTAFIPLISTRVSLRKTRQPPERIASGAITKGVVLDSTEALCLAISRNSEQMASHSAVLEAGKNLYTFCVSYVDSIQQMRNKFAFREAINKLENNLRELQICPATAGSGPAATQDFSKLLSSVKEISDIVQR
Sequence of UniProt P28566 (whole entry, looked up): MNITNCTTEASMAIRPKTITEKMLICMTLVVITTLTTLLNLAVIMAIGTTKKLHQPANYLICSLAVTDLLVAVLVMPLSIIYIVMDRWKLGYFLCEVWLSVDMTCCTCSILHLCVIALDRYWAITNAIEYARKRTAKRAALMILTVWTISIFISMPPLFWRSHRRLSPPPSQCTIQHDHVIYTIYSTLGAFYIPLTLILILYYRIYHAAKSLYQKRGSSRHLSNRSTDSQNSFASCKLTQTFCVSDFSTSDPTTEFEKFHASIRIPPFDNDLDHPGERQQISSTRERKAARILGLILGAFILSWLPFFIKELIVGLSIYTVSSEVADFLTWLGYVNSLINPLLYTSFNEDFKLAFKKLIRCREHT

Set 1
Compound: Cn1cnc(Cn2ccc3ccc(CNCc4[nH]c5ccccc5c4[C@H]4NC(=O)c5ccc(O)cc54)cc32)c1
Effect on: binding
Mode: competitor
Technique: NanoBRET
Cell line: HEK293
KRAS G12C: GTPase KRas (KRAS, Homo sapiens, UniProt P01116, G12C)
KRAS: GTPase KRas (KRAS, Homo sapiens, UniProt P01116)
target | concentration | time | baseline | normalized BRET
KRAS G12C | 247 nM | 3 h | vehicle and 20 µM BI compound | 94.2% and 96.3% and 96.8% and 96%
KRAS G12C | 247 nM | 0.5 h | vehicle and 20 µM BI compound | 97.2% and 87.4% and 87%
KRAS G12C | 9.14 nM | 2 h | vehicle and 20 µM BI compound | 93.8% and 114% and 109% and 102%
KRAS | 2.22 µM | – | – | 11.6% and 14.1% and 10.3% and 10.2%
KRAS | 9.14 nM | – | – | 100% and 97% and 98.1% and 87.1%
KRAS G12C | 2.22 µM | 0.5 h | vehicle and 20 µM BI compound | 32.9% and 24.7% and 25.8% and 22.4%
KRAS G12C | 6.67 µM | 1 h | vehicle and 20 µM BI compound | 3.84% and 3.87% and 5.66% and 5.7%
KRAS G12C | 82.2 nM | 2 h | vehicle and 20 µM BI compound | 111% and 108% and 116%

Set 2
Cell line: HaCaT
Concentration: 100 µM
Time: 18 h
SMILES | viability
COc1cc2c(cc1O)[C@@H](Cc1ccc(O)c(Oc3ccc(C[C@@H]4c5cc(OC)c(OC)cc5CCN4C)cc3)c1)N(C)CC2 | 21.7%
CCN1CC(CCN2CCOCC2)C(c2ccccc2)(c2ccccc2)C1=O (centres unmarked) | 108%
CC(C)(C)NC[C@H](O)COc1nsnc1N1CCOCC1 | 95.1%
O=C1CN2Cc3c(ccc(Cl)c3Cl)N=C2N1 | 108%
C=C1CCN([C@H](C)[C@](O)(Cn2cncn2)c2ccc(F)cc2F)CC1 | 30.1%
Cc1c(N(C)CS(=O)(=O)O)c(=O)n(-c2ccccc2)n1C | 105% and 134%
C[C@@](Cc1ccc(O)c(O)c1)(NN)C(=O)O | 110%
CCOC(=O)CCC(=O)O[C@H]1[C@H](O[C@@H]2[C@@H](C)[C@H](O[C@H]3C[C@@](C)(OC)[C@@H](O)[C@H](C)O3)[C@@H](C)C(=O)O[C@H](CC)[C@@](C)(O)[C@H](O)[C@@H](C)C(=O)[C@H](C)C[C@@]2(C)O)O[C@H](C)C[C@@H]1N(C)C | 96.2%
COc1cc(NS(=O)(=O)c2ccc(N)cc2)ncn1 | 90.9%
O=C(O)Cc1ccccc1Nc1c(Cl)cccc1Cl | 98%
Nc1nc(F)nc2c1ncn2[C@@H]1O[C@H](COP(=O)(O)O)[C@@H](O)[C@@H]1O | 99.8%
CC(=O)O[C@H]1C[C@@H]2CC[C@@H]3[C@H](CC[C@@]4(C)[C@H]3C[C@H]([N+]3(C)CCCCC3)[C@@H]4OC(C)=O)[C@@]2(C)C[C@@H]1N1CCCCC1 | 97%

Set 3
Organism: Sarcocystis neurona
Effect on: parasite growth
Concentration: 10 µM
Structure (SMILES) | inhibition
CC(COc1ccccc1Cc1ccccc1)N1CCCCC1.O=P(O)(O)O (centres unmarked) | 8.3%
CCCCNc1cc(C(=O)O)cc(S(N)(=O)=O)c1Oc1ccccc1 | -24.9%
COc1ccc(CN2CCN(C(c3ccc(F)cc3)c3ccc(F)cc3)CC2)c(OC)c1OC.Cl.Cl | 34.3%
CO[C@H]1/C=C/O[C@@]2(C)Oc3c(C)c(O)c4c(O)c(c5c(nc6cc(C)ccn65)c4c3C2=O)NC(=O)/C(C)=C\C=C\[C@H](C)[C@H](O)[C@@H](C)[C@@H](O)[C@@H](C)[C@H](OC(C)=O)[C@@H]1C | -23.5%
CN1CCc2cc(Cl)c(O)cc2[C@@H](c2ccccc2)C1.Cl | -31%
Nc1ccc(S(=O)(=O)c2ccc(N)cc2)cc1 | -22.6%
CCCCc1oc2ccccc2c1C(=O)c1cc(I)c(OCCN(CC)CC)c(I)c1 | 6.1%
Nc1nc(N)c2nc(-c3ccccc3)c(N)nc2n1 | -67.2%
Clc1ccccc1C(c1ccccc1)(c1ccccc1)n1ccnc1 | 53.8%
COC1=CC(=O)C[C@@H](C)[C@]12Oc1c(Cl)c(OC)cc(OC)c1C2=O | -45.8%

Set 4
Target: Serine/threonine-protein kinase BRSK2 (BRSK2, Homo sapiens, UniProt Q8IWQ3)
Sequence of UniProt Q8IWQ3 (whole entry, looked up): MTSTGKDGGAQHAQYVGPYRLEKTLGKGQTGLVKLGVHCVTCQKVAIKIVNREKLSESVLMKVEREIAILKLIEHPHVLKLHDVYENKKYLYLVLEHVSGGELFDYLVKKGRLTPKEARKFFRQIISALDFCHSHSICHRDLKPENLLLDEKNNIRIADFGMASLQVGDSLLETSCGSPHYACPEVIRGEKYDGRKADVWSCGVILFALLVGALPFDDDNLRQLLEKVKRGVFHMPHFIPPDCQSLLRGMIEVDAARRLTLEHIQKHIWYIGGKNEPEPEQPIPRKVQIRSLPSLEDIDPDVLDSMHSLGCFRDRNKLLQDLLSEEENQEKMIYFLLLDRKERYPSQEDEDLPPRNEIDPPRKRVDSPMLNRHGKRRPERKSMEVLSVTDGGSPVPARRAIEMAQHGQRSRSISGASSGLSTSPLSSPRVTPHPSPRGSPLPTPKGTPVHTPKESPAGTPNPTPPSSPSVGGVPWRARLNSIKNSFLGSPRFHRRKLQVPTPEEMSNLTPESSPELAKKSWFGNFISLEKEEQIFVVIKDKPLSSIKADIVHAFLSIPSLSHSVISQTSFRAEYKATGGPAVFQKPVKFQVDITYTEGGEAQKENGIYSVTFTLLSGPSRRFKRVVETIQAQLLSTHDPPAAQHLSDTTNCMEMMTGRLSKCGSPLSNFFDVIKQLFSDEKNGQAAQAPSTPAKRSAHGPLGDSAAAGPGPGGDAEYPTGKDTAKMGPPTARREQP
Effect on: enzyme activity
Mode: inhibitor
Concentration: 0.5 µM
Baseline: control
Structure (SMILES) | remaining activity [%]
O=C1C(Cl)=C(N2C(=O)CCC2=O)C(=O)c2ccccc21 | 100
COc1cc2ncnc(Nc3ccc(O)c(Br)c3)c2cc1OC | 80.1
O=c1cc(-c2cccc3c2Sc2ccccc2S3)oc(N2CCOCC2)c1 | 101
CCOc1nc(NC(=O)Cc2cc(OC)ccc2OC)cc(N)c1C#N | 103
N#C/C(=C\c1ccc(O)c(O)c1)C(=O)NCc1ccccc1 | 99.3
CCN(CC)C(=O)c1ccc(Nc2nc(OCC3CCCCC3)c3[nH]cnc3n2)cc1 | 82.5
COc1cc2c(cc1OC)-c1[nH]nc(Nc3cccc(F)c3)c1C2 | 92.1
Cn1nc2c3c(cccc31)C(=O)c1ccccc1-2 | 96.4
CN(C)C[C@H]1CCn2c(c(C3=C(c4cn(C)c5ccccc45)C(=O)NC3=O)c3ccccc32)C1 | 102
Cc1cn(-c2cc(NC(=O)c3ccc(C)c(Nc4nccc(-c5cccnc5)n4)c3)cc(C(F)(F)F)c2)cn1 | 101
COc1cc2ncnc(Nc3cccc(Cl)c3)c2cc1OC | 96.7
Ic1cccc(CSc2nnc(-c3ccncc3)o2)c1 | 99.3
N#Cc1c(NC(=O)c2cccc3ccccc23)sc2c1CCCC2 | 100
Nc1cccc(-c2cc3c(Oc4cccc(O)c4)ncnc3[nH]2)c1 | 86.9
O=C(Nc1cccc(Nc2nccc(Nc3cccc(C(F)(F)F)c3)n2)c1)C1CC1 | 89.3
Cc1nc2cc3nc(-c4cccs4)cnc3cc2n1C | 98
CCN(CC)CCNC(=O)c1c(C)[nH]c(/C=C2\C(=O)Nc3ccc(F)cc32)c1C | 54.5
O=C1c2ccccc2-c2n[nH]c3cccc1c23 | 55.8
Cc1cc2ncc(-c3ccccc3)nc2cc1C | 102
CN([C@@H](Cc1ccc(OS(=O)(=O)c2cccc3cnccc23)cc1)C(=O)N1CCN(c2ccccc2)CC1)S(=O)(=O)c1cccc2cnccc12 | 100
C[C@@H]1CCN(C(=O)CC#N)C[C@@H]1N(C)c1ncnc2[nH]ccc12 | 86.9
c1ccc(-c2[nH]ncc2-c2ccnc3ccccc23)nc1 | 101
O=C(NC(NC(=S)Nc1ccc(F)c([N+](=O)[O-])c1)C(Cl)(Cl)Cl)C(c1ccccc1)c1ccccc1 (centres unmarked) | 102
c1ccc(-c2cnc(Nc3ccc(OCCN4CCCC4)cc3)s2)cc1 | 79.3
CCN(CC)CCNC(=O)c1c(C)[nH]c(/C=C2\C(=O)Nc3ccc(Cl)cc32)c1C | 53.7

Further values, each from its own experiment
Compound | tested on | assay | conditions | how to read | measurement | result
CCC(=NO)C(C)=Cc1ccc(F)c(C)c1 | Tyrosine-protein kinase ABL1 (ABL1, Homo sapiens, UniProt P00519, F317I) | KINOMEscan | 1 µM, F317I mutant, phosphorylated | baseline: control | remaining binding | 100%
Cc1cc(-n2nc(Cc3cc(F)cc(C(F)(F)F)c3)nc2C)ccc1C(N)=O | 5-hydroxytryptamine receptor 2B (HTR2B, Homo sapiens, UniProt P41595) | binding, radioligand binding | 10 µM | – | inhibition | -2.51%
Cn1cncc1[C@@](O)(COc1ccc(C#N)cc1-c1ccc(OC(F)(F)F)cc1)c1ccc(C#N)cc1 | HEK293T | high-content imaging | 10 µM, 24 h | – | cells with high Hoechst intensity | 5.7%
CC(=O)Nc1nc(CN2CCC[C@H](Cc3cc(C)nc(C)c3)C2)cs1 | 5-hydroxytryptamine receptor 1E (HTR1E, Homo sapiens, UniProt P28566) | ligand displacement | 10 µM | – | inhibition | 0.93%

For quick reference, copied from above (set 4):
Structure (SMILES) | remaining activity [%]
CCN(CC)CCNC(=O)c1c(C)[nH]c(/C=C2\C(=O)Nc3ccc(Cl)cc32)c1C | 53.7
C[C@@H]1CCN(C(=O)CC#N)C[C@@H]1N(C)c1ncnc2[nH]ccc12 | 86.9
CCN(CC)C(=O)c1ccc(Nc2nc(OCC3CCCCC3)c3[nH]cnc3n2)cc1 | 82.5
CN([C@@H](Cc1ccc(OS(=O)(=O)c2cccc3cnccc23)cc1)C(=O)N1CCN(c2ccccc2)CC1)S(=O)(=O)c1cccc2cnccc12 | 100
N#C/C(=C\c1ccc(O)c(O)c1)C(=O)NCc1ccccc1 | 99.3
O=c1cc(-c2cccc3c2Sc2ccccc2S3)oc(N2CCOCC2)c1 | 101
